Assay results pooled from the literature.
Parts stem from different laboratories: compare values within a part only.

Study 1
Target: Histone acetyltransferase KAT6A, winged helix 2, GST fusion (KAT6A, Homo sapiens, UniProt Q92794, residues 85-181)
Method: protein binding microarray
Form: double-stranded DNA, one strand shown
Medium: in vitro
Tested at: not given
Notes: 8-mer, flanks averaged, mean of 2 arrays, mostly near background
Baseline: not given
Reading: higher = stronger binding
Target sequence (chain): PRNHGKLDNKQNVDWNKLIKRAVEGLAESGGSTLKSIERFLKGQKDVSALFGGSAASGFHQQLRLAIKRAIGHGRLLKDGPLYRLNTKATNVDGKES
Strand	E-score
GTTTGCAA	0.109
CAATGAAG	-0.118
CTTTATAA	0.0215
CCTACACG	-0.0672
TGATGCAA	0.0632
AAGTAGGC	0.0247
GAGATATC	0.0685
GGGCAAAC	0.0936
TCCTCCCA	0.0455
ACCCGTTC	-0.0347
ATGGTAGC	-0.046
TGCACCCA	0.11
CAGCGACA	0.00477
CTCCAAAA	0.0614
ATGAATAA	-0.0979
AGAGCAGG	0.0762
ACGTCCAA	-0.218
AACTTGGA	-0.129

Study 2
Target: RNA binding protein fox-1 homolog 2, RRM domain, GST-SBP tag (RBFOX2, Homo sapiens, UniProt O43251-10, residues 100-194)
Method: RNA Bind-n-Seq
Form: RNA
Medium: in vitro
Tested at: 365 nM
Notes: natural RNA segment, single round, ends assumed
Baseline: no-protein control
Reading: higher = stronger binding
All sequences stand within: GGGAGUUCUACAGUCCGACGAUC … UGGAAUUCUCGGGUGCCAA
Construct (chain): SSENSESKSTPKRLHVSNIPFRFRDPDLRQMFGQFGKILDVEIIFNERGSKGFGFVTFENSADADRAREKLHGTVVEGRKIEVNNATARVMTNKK
Strand	RBNS enrichment (R)
GUCCAUUCAGCCAGGAACACACUCUAGCCUUCCUGACUCUCUUAAACUGUGGACGUCAGGAGGCCGAAUGCAGAAAAGUAUAUCUGGGAUGGAUGGCAGGGAAUAGAAGC	8.1
AAGCCUGUCUGUCUCUUCACCAGUGGAGUGAGUGCAGCAGUUAGAAAGAGAAGCAAUAUUGUGCAACUGGUGCAGUGGUGAGUUAAUCAUAGUGUAUAACCUUGUGUUCA	0.462
AGACUUGGGGCCAUGUGCCUCCCCACACAUGGGCAAGGACAGGUGGAAUGUCGGGACCACACUGUGCGGCUUCUCGGCACAAAGCGGAGGGAGGCUGUGGUCGCUGCCGG	0.574
UUGCUGUUUUGUGUUUAAUUAGUAUAUUGUUCAUGCCUCUCUUCUGCAGUGUCUCAUCUCAUAGACUGUGAACCUGUAUAUUAUUCAAAUGGCUACAGAUAAUGCUCUUU	0.358
CUUUCUAUAAAACUUGAAAAUAGCAAAAACCCUCAACUGUUGUAAAUCAUGCAAUUAAAGUUGAUUACUUAUAAAUAUGAACUUUGGAUCACUGUAUAGACUGUUAAAUU	0.449
CACACACACACACACACACUCUUGAUCCCUUGCUUCCCUCCCCCAGUGCGUUCUGUGAUCGCCAAGUUCAAAGCUGUGCACAUGUGGACACUCAAUAAAUGUUCAUUGGU	0.6
AGGAUACUCUUGUACCUGUGGUUCAUGCUUGAAAUGUUAAAGAUUCCUUAAUCCAACUUAUACCGGGUUGGAGGCACUUGUACUAUUUAUUUCCUGGGAAAUUUUGGUCA	0.784
GAUGGACAGGAAGGCUGGGAGAACUAACAGUUGGAUACUGAAGUUGCUACUGCGGACCUGUGGCUCCCUUGGCCAGCCAUGUUUUGGGAAAGAGUUCACAUCUUAGGUUU	0.646
CAACGAAAACCUGUGCUUGUGUGUGUGUGGCGGCGGGGAGGGAGGAUCCUGUUUCCCACCUCCUUCUCCUCCCCUGUACUCCCCAGUGCCUUCCUUGUUCUGGUGGAGCU	0.511
CAUGUUUCCCAAAGCUCAGGUUCAUCUCCACUAUUGACAGAGUCGGGUAGUGGGAGAGUAUAAGUGACUUGAGACAGAGUGUCCUUGCUCAGAAAACUGUGAAGCAGGGG	0.277
UCUAAAACUCUGUGCAGAAUCUUGUGUUGGGAUUGUAUCUUGACAUUCCUGUUGUGUUAUUUUUCUUAACUGGAGUGUGUGCUGCCUUUCAGGUACAAUUUUUGUGUAAU	0.47
CCUUUGCUAAUGUCAGAGACAGUUCCUAACCUAGUAACAGUUCACUUUGCGUCGUUUCUGUACUUCUUUAAAACAACUAAGCCACCGUUCGCAGCUGAGUUGUGAUACUG	0.298

Study 3
Target: Interferon regulatory factor 5, full length, phosphomimetic (IRF5, Homo sapiens, UniProt Q13568-2, residues 1-514, K96S/S451D/S453D/S456D/S462D)
Method: protein-binding microarray
Form: double-stranded DNA, one strand shown
Medium: in vitro
Tested at: 250 nM
Notes: 60-bp whole probe
Together with: salmon DNA 0.4 mg/ml
Baseline: random background probes
Reading: higher = stronger binding
All sequences stand within: GCCTAGCAC … GTCTTGATTCGCTTGACGCTGCTG
Strand	log fluorescence
TTACATTTCGGGACTGGATTAGTGCTA	2.9 z-score
GACGCACTGGACTATCGGGACGTGCTA	0.717 z-score
GACGGACTGTGGTTTCGGGACGTGCTA	2.46 z-score
GACGGTATCGGTGTCGGGACGTGCTAG	3.72 z-score
GATTCTTTCGATGCTAAACGAGTGCTA	8.64 z-score
GACGGATTCCTTTTCCTGACGTGCTAG	0.266 z-score
TCAGATTTCGGGACTGGATTAGTGCTA	1.96 z-score
GGGCCTAGCCATTATGAGTCTGTGCTA	-0.462 z-score
TTAGGTATAGGGTTTCGGTTAGTGCTA	6.3 z-score
GACGAACTGGGGTATCGAGCCGTGCTA	-0.259 z-score
TCACAGATGTTTTTCATACTGTGCTAG	0.794 z-score
GACGGTATCCTTCACCTGACGTGCTAG	0.136 z-score
TTCATTTTCTTTAACTCATTGTGCTAG	1.96 z-score
GTAGGTTTCCTTCTCCTTTAGTGCTAG	0.835 z-score
GACGGTCTCCTACTTCTGACGTGCTAG	-0.337 z-score
TTAGGACTGCTACTCCTTTAGTGCTAG	-0.282 z-score
TTAGGTCTCCTTTTCATTTAGTGCTAG	0.716 z-score
TTAGCACTGGACTTTCGGTTAGTGCTA	9.63 z-score
GACGATATCGGGACTGGAGACGTGCTA	0.847 z-score
TCATTAATGCTTCTGGAACTGTGCTAG	0.252 z-score
TTAGGTTTCGGTATCGGGTAGTGCTAG	11 z-score
TTAGGTATCGCCACTGGGTTAGTGCTA	0.865 z-score
TTAGGTCTCCTTGTCCTTTAGTGCTAG	-0.303 z-score
AAACTCGTGTTTTTCTCCTAGTGCTAG	0.583 z-score
TTCGGACTGGACACTGGGTTAGTGCTA	-0.41 z-score

Study 4
Target: Prothrombin, mature alpha-thrombin (F2, Homo sapiens, UniProt P00734)
Method: aptamer microarray, sandwich
Form: DNA with 2'F-ANA
Medium: in vitro
Tested at: 200 nM
Notes: whole 15-mer aptamer, many near background
Together with: Cy3 exosite-II aptamer, 400 nM
Reading: higher = stronger binding
Strand: GGTTGGTGTGGTTGG
Modification	mean fluorescence intensity [a.u.]
2'F-ANA at 2 3 4 6 7 9 10 11 12 14	172
2'F-ANA at 2 3 4 5 9 10 11	61.2
2'F-ANA at 1 3 4 5 6 7 9 11	54.2
2'F-ANA at 1 2 3 5 7 8 9 11 14 15	42.4
2'F-ANA at 2 3 5 8 10 11 12	59.8
2'F-ANA at 2 3 4 6 13 15	378
2'F-ANA at 3 4 6 7 11	538
2'F-ANA at 1 4 5 8 10 11 13 14 15	46.7
2'F-ANA at 2 3 4 5 6 8 9 10 11 14 15	54.8
2'F-ANA at 2 3 4 5 7 8 14 15	53.9
2'F-ANA at 1 2 4 5 6 7 9 10 11 13 15	76.8
2'F-ANA at 1 3 4 5 6 11 12 13 15	67.4
2'F-ANA at 1 2 4 9 11 13 14	142
2'F-ANA at 1 2 4 15	138
2'F-ANA at 2 3 7 8 9 10	432
2'F-ANA at 3 4 6 8 11 15	526
2'F-ANA at 1 5 6 11 12 13	82.6
2'F-ANA at 1 3 4 13 14 15	61.5
2'F-ANA at 2 4 6 8 9 10 14 15	69.8
2'F-ANA at 3 5 6 7 9 10 12 13 14	48
2'F-ANA at 2 5 6 9 10 12	52.3
2'F-ANA at 2 3 5 6 7 8 9 11 13 15	68.1
2'F-ANA at 2 3 4 5 6 8 9 13 14 15	50.3

Study 5
Target: Sal-like protein 4, full length isoform A (SALL4, Homo sapiens, UniProt Q9UJQ4, residues 1-1053)
UniProt Q9UJQ4, sequence (whole entry, looked up): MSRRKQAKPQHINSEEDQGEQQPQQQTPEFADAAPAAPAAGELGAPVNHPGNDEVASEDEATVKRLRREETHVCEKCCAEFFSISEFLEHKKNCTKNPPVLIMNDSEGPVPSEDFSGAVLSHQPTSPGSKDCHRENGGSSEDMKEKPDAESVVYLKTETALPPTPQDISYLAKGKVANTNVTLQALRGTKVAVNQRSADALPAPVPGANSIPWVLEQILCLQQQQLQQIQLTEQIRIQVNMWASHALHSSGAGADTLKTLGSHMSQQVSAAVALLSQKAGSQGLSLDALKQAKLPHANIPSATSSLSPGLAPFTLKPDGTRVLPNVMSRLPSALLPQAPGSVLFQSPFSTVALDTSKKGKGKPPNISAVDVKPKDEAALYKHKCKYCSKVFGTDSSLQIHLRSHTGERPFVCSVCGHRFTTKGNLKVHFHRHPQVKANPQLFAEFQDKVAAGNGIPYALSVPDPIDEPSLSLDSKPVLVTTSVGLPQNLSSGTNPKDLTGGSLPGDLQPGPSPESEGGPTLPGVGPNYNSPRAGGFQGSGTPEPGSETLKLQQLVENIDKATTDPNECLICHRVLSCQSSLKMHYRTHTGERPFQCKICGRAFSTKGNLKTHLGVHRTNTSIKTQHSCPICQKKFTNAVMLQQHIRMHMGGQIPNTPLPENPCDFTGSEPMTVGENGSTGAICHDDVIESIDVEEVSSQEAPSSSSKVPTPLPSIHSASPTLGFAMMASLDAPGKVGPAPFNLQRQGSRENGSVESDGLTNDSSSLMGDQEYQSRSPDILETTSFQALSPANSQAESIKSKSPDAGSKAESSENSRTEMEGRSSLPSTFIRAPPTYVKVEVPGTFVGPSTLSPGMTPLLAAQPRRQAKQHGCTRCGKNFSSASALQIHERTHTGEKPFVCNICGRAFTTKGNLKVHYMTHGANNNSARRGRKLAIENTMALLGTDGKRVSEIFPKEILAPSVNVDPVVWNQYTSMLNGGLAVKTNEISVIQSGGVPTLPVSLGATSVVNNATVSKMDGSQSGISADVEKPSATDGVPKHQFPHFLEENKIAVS
Method: universal PBM
Form: double-stranded DNA, one strand shown
Medium: in vitro
Tested at: 600 nM
Notes: 8-mer, flanks averaged, mean of replicates
Reading: higher = stronger binding
Strand	E-score
CCGAACCC	-0.365
CAGCGGGA	-0.293
GTACCTTA	0.112
ATAACTTA	0.377
GCTCTTGA	-0.0808
ATGTTAAT	0.279
TACAGCAA	0.11
AAAAACTC	0.116
AATGCTTG	0.00698
ATCTAGAG	0.0312
ACATAGAG	0.0348
AGTTATCA	0.273
ATGAGTCC	-0.055
ATTAACAG	0.179
ACTACTAT	0.259
TATTCCAA	0.283
CAGAGTTA	-0.0369
AAGCTTAT	0.227
GGGAGACC	-0.342
GCGCATGA	-0.235
AAACTTAG	0.101
CGACGTGA	-0.0366
AAAGGGAA	0.108
CACCATCG	-0.287
AAGAGGAG	-0.163

Excerpt of the above (study 5):
Strand	E-score
ATGAGTCC	-0.055
GCGCATGA	-0.235
AAAAACTC	0.116
AAAGGGAA	0.108
CCGAACCC	-0.365
CAGCGGGA	-0.293
